Measured values pooled from the literature.
Lines come from different studies, so protocols differ. ± gives the spread as reported.
IDE: Insulin-degrading enzyme (IDE, Homo sapiens, UniProt P14735)

Compound	target or system	test	system	conditions	quantity	value
C=CCn1c(=O)c2cnc(Nc3ccc(N4CCN(C)CC4)cc3)nc2n1-c1ccc2c(n1)[C@@](O)(CC)CC2			OVCAR-3, female NOD/SCID mouse xenograft, plasma	oral, 60 mg/kg once daily	Cmax	3710 ng/mL
CCn1cc(C(=O)N2CCOCC2)c(=O)c2cc(NC3Cc4ccccc4C3)cnc21			human, fasted	oral suspension, 15 mg single dose, arithmetic mean	Cmax	116 ng/mL
CN(C(=O)n1cnc(-c2ccc[n+]([O-])c2)c1)[C@H]1CC[C@H](O)CC1			cynomolgus monkeys, plasma	oral, 1.0 mg/kg	Cmax	23.5 ng/mL
O=C(NCCN1CCCC1)c1cc(-c2ccc(CN3CCOCC3)cc2)nc2ccc(F)cc12			NMRI mouse Plasmodium berghei-infected, blood	oral, 1.5 mg/kg, monotherapy	Cmax	191 nM
CC[C@H](C)[C@@H]1NC(=O)[C@@](C)(NC(=O)[C@H](CCCNC(=N)N)NC(=O)[C@H](CC(C)C)NC(=O)[C@@H](NC(=O)[C@H](CCC(N)=O)NC(=O)[C@H](CC(C)C)NC(C)=O)[C@@H](C)O)CCCC=CCCC[C@@](C)(C(=O)N[C@@H](CC(C)C)C(=O)N[C@@H](Cc2ccc3ccccc3c2)C(N)=O)NC(=O)[C@H](CCCNC(=N)N)NC(=O)[C@H](CCC(N)=O)NC1=O			BALB/c mouse, plasma	iv, 5 mg/kg	Cmax	47400 ng/mL
COc1ncc(-c2nc3c(n2C(C)C)[C@H](c2ccc(Cl)cc2)N(c2cc(Cl)cn(C)c2=O)C3=O)c(OC)n1		LC-MS/MS, noncompartmental	human, plasma	oral, 150 mg, C1D8, high-dose, geometric mean	Cmax	1140 ng/mL
COc1nc(-c2cc(C)c(N[C@@H](C)c3cc(F)cc(F)c3)nn2)ccc1-n1cnc(C)c1			cynomolgus monkey, male, plasma	intravenous, 1 mg/kg	Cmax	1320 ng/mL
CN1CCC[C@H](CN2c3ccccc3Sc3ccccc32)C1.Cl			fasted female ICR mouse, liver	oral, 16 mg/kg	Cmax	9860 ng/g
Cc1ccccc1S(=O)(=O)N1CCCCN2[C@H](CO)[C@@H](c3ccc(-c4cccc(F)c4C(F)(F)F)cc3)[C@@H]2C1	IDE	enzyme activity, inhibitor, fluorescence kinetic		with: Mca-RPPGFSAFK(Dnp)-OH substrate	EC50	170 nM
CCOc1c([C@H](C)n2nc(C)c3c(N)ncnc32)cc(Cl)c(F)c1[C@@H]1CNC(=O)C1			patients, monotherapy	oral, 20 mg once daily, cycle 1 day 15	Cmax	1280 ± 437 nM
CNC(=O)c1ccc(-c2cnc3ncc(Cc4ccc5ncccc5c4)n3n2)cc1F			human moderate hepatic impairment	oral, 200 mg single dose, covariate-adjusted geometric mean	Cmax	1440 ng/mL
Cc1ccccc1-c1ccc([C@H]2[C@@H](CO)N3C(=O)CN(C(=O)Nc4ccc(F)cc4)C[C@H]23)cc1	IDE	enzyme activity, inhibitor, fluorogenic kinetic		with: Mca-RPPGFSAFK(Dnp)-OH substrate	EC50	470 nM
CCc1nc(C(N)=O)c(Nc2ccc(N3CCC(N4CCN(C)CC4)CC3)c(OC)c2)nc1NC1CCOCC1			Japanese patients, plasma	oral, 80 mg, cycle 1 day 28, multiple doses, median	Cmax	216 ng/mL
CN[C@H](CC(C)C)C(=O)N[C@H]1C(=O)N[C@@H](CC(N)=O)C(=O)N[C@H]2C(=O)N[C@H]3C(=O)N[C@H](C(=O)N[C@H](C(=O)O)c4cc(O)cc(O)c4-c4cc3ccc4O)[C@H](O)c3ccc(c(Cl)c3)Oc3cc2cc(c3O[C@@H]2O[C@H](CO)[C@@H](O)[C@H](O)[C@H]2O[C@H]2C[C@](C)(N)[C@H](O)[C@H](C)O2)Oc2ccc(cc2Cl)[C@H]1O			C57BL/6N mouse H3, faeces, wet weight	po, 0.5 mL, 20 mg/mL solution	Cmax	3.9e+06 ng/g

Some of these lines once more:
Compound	target or system	test	system	conditions	quantity	value
CN(C(=O)n1cnc(-c2ccc[n+]([O-])c2)c1)[C@H]1CC[C@H](O)CC1			cynomolgus monkeys, plasma	oral, 1.0 mg/kg	Cmax	23.5 ng/mL
O=C(NCCN1CCCC1)c1cc(-c2ccc(CN3CCOCC3)cc2)nc2ccc(F)cc12			NMRI mouse Plasmodium berghei-infected, blood	oral, 1.5 mg/kg, monotherapy	Cmax	191 nM
